Assay results from different studies.
Cell line: PC-3

| Compound | assay | setting | how to read | measurement | result |
| --- | --- | --- | --- | --- | --- |
| COc1cc(CCC[P+](c2ccccc2)(c2ccccc2)c2ccccc2)c(OC)c2c1OCO2.[I-] | SRB |  |  | TGI | > -4 log M |
| COc1c(C)c2c(c(O)c1C/C=C(\C)CCC(=O)O)C(=O)OC2 | cell proliferation |  |  | IC50 | 1510 nM |
| O=C1CCP(=S)(c2ccccc2)CC1 | annexin V/PI flow cytometry | IC50, 72 h |  | necrotic cells | 0.25% |
| COc1c(CCC[P+](c2ccccc2)(c2ccccc2)c2ccccc2)cc2c(c1OC)OCO2.[I-] | SRB |  |  | TGI | -4.65 log M |
| CC(C)N1CCC(NC2CCN(c3cccc(-c4cc5cc(F)ccc5[nH]4)c3)CC2)CC1 |  |  |  | GI50 | 1670 nM |
| S=P1(c2ccccc2)CCCCC1 | MTT | 72 h | reference: IC50 HaCaT over IC50 PC-3 | selectivity index | 1 |
| CN1CCN(C2(CNC3CCN(c4cccc(-c5cc6cc(F)ccc6[nH]5)c4)CC3)CCC2)CC1 |  |  |  | GI50 | 1730 nM |
| CCN(CC)c1ccc(C=NNC(=O)CSc2nc3ccccc3c(=O)n2Cc2ccc(S(N)(=O)=O)cc2)c(O)c1 | NCI five-dose screen |  |  | CC50 | > 100 µM |
| COc1cccc2c1C(=O)c1c(O)c3c(c(O)c1C2=O)C[C@@](O)(C(=O)CO)C[C@@H]3O[C@H]1C[C@H](N)[C@H](O)[C@H](C)O1 | SRB | 10 µg/mL, 48 h | negative values mean cell killing | growth percent | -25.3% |
| Cn1cncc1C1=CN(c2ncnc3[nH]cnc23)CCS1 |  | prostate cancer |  | CC50 | > 200 µM |

For quick reference, copied from above:
| Compound | assay | setting | how to read | measurement | result |
| --- | --- | --- | --- | --- | --- |
| CN1CCN(C2(CNC3CCN(c4cccc(-c5cc6cc(F)ccc6[nH]5)c4)CC3)CCC2)CC1 |  |  |  | GI50 | 1730 nM |
